# Experimental data of several laboratories.
# Lines come from different studies, so protocols differ. Values joined by “and” are separate records of one study, mostly repeats; a detail may differ. ± gives the spread as reported.
# Sequence of UniProt Q9H2X3 (whole entry, looked up): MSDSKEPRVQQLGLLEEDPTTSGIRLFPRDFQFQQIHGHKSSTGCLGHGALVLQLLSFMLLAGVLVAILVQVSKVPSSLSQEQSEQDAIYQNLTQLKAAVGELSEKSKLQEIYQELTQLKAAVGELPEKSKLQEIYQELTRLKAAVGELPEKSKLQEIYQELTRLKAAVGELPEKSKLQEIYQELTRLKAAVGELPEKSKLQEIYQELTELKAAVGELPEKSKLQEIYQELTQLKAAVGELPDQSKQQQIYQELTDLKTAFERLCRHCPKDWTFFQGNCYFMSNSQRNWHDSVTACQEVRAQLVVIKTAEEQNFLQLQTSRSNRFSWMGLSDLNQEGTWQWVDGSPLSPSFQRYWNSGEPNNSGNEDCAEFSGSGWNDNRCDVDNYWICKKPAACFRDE
# Sequence of UniProt Q8NEZ5 (whole entry, looked up): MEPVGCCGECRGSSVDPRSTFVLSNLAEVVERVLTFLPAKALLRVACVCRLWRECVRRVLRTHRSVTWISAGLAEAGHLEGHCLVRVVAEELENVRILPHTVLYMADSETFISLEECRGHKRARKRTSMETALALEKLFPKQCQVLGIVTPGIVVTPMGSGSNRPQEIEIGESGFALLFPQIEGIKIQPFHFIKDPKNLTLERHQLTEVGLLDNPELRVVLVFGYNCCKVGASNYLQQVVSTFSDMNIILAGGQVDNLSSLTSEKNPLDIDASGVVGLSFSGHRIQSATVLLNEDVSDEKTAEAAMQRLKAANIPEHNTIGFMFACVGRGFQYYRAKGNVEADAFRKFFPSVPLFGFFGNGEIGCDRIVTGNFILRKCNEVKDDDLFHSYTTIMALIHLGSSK
# Sequence of UniProt P63104 (whole entry, looked up): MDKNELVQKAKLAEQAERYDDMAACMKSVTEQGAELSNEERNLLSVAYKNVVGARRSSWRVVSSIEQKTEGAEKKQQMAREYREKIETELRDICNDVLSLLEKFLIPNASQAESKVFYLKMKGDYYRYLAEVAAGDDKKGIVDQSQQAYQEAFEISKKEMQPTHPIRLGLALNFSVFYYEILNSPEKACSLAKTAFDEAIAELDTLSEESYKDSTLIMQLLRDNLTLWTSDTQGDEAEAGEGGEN
# Sequence of UniProt O75581 (whole entry, looked up): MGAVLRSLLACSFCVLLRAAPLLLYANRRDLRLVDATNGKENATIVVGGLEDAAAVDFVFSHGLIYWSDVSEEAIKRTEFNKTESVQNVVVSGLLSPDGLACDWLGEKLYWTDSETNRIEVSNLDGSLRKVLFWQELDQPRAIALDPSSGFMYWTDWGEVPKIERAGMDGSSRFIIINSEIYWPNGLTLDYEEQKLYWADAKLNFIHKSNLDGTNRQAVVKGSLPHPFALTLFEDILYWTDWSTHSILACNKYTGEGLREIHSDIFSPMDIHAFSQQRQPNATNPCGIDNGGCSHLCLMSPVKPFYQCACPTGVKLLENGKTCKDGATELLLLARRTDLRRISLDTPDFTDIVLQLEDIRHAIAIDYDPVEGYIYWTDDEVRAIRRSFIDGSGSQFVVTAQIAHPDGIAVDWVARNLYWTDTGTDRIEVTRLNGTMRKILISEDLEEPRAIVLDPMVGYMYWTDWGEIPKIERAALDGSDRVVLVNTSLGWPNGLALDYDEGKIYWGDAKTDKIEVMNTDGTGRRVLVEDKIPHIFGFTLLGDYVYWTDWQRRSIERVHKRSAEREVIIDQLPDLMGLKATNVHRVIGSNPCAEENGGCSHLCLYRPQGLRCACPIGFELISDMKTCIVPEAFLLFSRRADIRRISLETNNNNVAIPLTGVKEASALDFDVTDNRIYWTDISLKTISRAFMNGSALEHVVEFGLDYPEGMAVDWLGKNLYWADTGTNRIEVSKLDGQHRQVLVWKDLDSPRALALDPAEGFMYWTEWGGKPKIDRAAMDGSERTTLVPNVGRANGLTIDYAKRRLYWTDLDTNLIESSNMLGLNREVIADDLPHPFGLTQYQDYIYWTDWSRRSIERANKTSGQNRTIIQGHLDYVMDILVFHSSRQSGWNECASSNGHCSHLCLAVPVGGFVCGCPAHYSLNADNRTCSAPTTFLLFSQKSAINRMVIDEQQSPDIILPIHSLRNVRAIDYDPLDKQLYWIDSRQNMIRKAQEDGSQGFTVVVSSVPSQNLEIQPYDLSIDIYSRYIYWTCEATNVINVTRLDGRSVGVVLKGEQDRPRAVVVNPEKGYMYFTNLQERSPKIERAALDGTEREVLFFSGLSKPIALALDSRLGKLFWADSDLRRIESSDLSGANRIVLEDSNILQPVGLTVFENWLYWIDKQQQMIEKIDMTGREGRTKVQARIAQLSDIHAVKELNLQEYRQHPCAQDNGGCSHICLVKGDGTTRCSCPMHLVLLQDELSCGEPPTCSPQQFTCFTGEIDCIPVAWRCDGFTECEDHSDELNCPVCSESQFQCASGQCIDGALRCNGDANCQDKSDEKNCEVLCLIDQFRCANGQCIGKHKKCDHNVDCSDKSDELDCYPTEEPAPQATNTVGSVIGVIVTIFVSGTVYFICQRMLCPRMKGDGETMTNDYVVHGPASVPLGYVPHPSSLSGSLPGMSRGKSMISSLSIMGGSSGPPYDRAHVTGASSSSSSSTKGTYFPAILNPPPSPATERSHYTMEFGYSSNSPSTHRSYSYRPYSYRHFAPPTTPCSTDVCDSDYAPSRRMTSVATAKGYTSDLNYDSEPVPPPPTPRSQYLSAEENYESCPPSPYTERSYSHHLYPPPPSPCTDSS
# Sequence of UniProt P31947 (whole entry, looked up): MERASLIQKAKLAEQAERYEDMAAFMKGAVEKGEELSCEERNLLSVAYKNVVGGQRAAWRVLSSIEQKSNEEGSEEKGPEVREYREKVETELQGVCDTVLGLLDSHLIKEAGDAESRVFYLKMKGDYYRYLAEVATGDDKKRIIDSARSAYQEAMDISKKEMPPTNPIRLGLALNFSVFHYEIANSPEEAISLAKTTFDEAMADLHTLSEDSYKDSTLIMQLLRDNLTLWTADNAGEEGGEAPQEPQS
# Sequence of UniProt Q9H7M9 (whole entry, looked up): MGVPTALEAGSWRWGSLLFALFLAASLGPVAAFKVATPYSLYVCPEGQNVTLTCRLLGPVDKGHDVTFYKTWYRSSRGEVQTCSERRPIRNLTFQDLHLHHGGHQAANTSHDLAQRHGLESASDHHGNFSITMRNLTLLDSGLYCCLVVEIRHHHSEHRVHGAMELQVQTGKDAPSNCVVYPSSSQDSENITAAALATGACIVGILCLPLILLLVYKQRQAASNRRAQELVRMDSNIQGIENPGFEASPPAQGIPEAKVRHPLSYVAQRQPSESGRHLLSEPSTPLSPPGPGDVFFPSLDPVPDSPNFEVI
# Sequence of UniProt Q14145 (whole entry, looked up): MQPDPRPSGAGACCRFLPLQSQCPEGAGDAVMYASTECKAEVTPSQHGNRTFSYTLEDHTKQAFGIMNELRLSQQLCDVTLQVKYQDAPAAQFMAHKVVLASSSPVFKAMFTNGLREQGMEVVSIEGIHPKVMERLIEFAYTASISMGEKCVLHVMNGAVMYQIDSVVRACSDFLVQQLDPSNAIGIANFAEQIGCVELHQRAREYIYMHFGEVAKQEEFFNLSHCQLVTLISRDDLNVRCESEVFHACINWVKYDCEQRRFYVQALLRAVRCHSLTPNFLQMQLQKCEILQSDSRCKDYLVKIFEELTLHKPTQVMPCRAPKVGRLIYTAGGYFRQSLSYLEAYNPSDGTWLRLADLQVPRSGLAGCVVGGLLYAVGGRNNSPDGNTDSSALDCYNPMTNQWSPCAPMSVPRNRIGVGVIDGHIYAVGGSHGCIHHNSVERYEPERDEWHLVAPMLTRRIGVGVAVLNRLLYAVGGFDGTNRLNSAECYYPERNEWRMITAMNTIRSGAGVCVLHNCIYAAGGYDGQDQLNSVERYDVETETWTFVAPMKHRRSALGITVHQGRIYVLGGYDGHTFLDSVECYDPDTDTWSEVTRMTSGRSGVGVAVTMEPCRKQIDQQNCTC
# Sequence of UniProt P21888 (whole entry, looked up): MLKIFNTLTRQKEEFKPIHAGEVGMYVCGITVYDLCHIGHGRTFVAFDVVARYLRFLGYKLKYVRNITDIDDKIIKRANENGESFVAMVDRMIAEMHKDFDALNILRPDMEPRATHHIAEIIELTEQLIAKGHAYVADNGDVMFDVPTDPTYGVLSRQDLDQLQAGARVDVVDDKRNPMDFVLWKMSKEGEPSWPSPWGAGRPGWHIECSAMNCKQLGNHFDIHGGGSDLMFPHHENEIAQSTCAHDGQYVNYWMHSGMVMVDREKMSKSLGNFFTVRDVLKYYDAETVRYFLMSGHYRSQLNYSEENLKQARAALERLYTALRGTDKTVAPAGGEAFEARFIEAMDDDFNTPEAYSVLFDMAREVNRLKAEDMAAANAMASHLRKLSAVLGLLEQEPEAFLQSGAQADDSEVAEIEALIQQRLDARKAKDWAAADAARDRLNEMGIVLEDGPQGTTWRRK
# Sequence of UniProt P53350 (whole entry, looked up): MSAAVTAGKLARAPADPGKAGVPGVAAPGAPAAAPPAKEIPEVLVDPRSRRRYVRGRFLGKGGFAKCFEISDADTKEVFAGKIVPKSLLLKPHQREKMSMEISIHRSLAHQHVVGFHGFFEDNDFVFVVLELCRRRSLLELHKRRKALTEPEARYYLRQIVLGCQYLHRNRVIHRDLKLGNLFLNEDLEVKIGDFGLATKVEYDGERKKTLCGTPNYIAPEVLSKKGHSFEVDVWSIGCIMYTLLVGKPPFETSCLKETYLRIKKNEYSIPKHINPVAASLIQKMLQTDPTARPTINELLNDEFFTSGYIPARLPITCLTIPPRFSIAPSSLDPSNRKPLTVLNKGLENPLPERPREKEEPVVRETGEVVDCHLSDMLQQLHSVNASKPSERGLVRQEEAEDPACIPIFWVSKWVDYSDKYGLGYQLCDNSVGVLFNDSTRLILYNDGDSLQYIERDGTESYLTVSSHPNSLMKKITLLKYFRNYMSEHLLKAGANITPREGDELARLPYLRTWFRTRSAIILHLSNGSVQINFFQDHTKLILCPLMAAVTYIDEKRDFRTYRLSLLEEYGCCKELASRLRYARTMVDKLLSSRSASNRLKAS
SMILES,target,test,conditions,scale,Kd
CC(=O)N[C@@H](CCC(=O)O)C(=O)N[C@@H](CCC(=O)O)C(=O)N[C@@H](CCC(=O)O)C(=O)N[C@@H](Cc1c[nH]c2ccccc12)C(=O)N[C@@H](C)C(=O)N[C@@H](CCCNC(=N)N)C(=O)N[C@@H](CCC(=O)O)C(=O)N[C@H](C)C(=O)NCC(=O)N[C@@H](C)C(=O)N[C@@H](CCC(N)=O)C(=O)N[C@@H](CC(C)C)C(=O)N[C@@H](CCCNC(=N)N)C(=O)N[C@@H](CCCNC(=N)N)C(=O)N[C@@H](C)C(=O)N[C@@H](C)C(=O)N[C@@H](CC(=O)O)C(=O)N[C@@H](CC(=O)O)C(=O)N[C@@H](CC(C)C)C(=O)N[C@@H](CC(N)=O)C(=O)N[C@@H](C)C(=O)N[C@@H](CCC(N)=O)C(=O)N[C@@H](Cc1ccc(O)cc1)C(=O)N[C@@H](CCC(=O)O)C(=O)N[C@@H](CCCNC(=N)N)C(=O)N[C@@H](CCCNC(=N)N)C(=O)N[C@@H](CCCNC(=N)N)C(N)=O,"Induced myeloid leukemia cell differentiation protein Mcl-1 homolog, residues 152-308 (Mus musculus, UniProt P97287)",surface plasmon resonance,,,500 nM
CC(=O)NC1C(O)OC(CO)C(OC2OC(CO)C(OC3OC(CO)C(O)C(O)C3O)C(O)C2O)C1O (stereo not shown),"sly (Streptococcus suis, UniProt Q55996, D469A)",binding,,,153 nM
CC(C)C[C@H](NC(=O)[C@H](CCP(=O)(O)O)NC(=O)[C@@H](NC(=O)[C@@H](NC(=O)[C@H](CCCNC(=N)N)NC(=O)[C@H](CC(C)C)NC(=O)[C@H](CO)NC(=S)Nc1ccc2c(c1)C(=O)OC21c2ccc(O)cc2Oc2cc(O)ccc21)[C@@H](C)O)C(C)C)C(=O)NCC(=O)N[C@@H](C)C(=O)NCC(=O)N[C@@H](C)C(=O)N[C@@H](Cc1c[nH]c2ccccc12)C(=O)N[C@@H](CC(C)C)C(=O)N[C@H](C(=O)N1CCC[C@H]1C(=O)N[C@@H](CCCNC(=N)N)C(=O)O)C(C)C,"14-3-3 protein sigma (SFN, Homo sapiens, UniProt P31947)","binding, fluorescence anisotropy","pH 7.5, FITC-labelled phosphopeptide titration",,69100 nM
CSCC[C@H](NC=O)C(=O)N[C@@H](CCCNC(=N)N)C(=O)N[C@H](C(=O)NCC(=O)N[C@@H](CC(N)=O)C(=O)N[C@@H](C)C(=O)N[C@@H](CC(N)=O)C(=O)NCC(=O)NCC(=O)N[C@@H](CCCCNC(=S)Nc1ccc2c(c1)C(=O)OC21c2ccc(O)cc2Oc2cc(O)ccc21)C(=O)O)[C@@H](C)O,"Uncharacterized protein YejA (yejA, Escherichia coli, UniProt P33913, S476A/S494A)","binding, fluorescence polarisation",YejA variant S476A,,12900 ± 540 nM
CC(=O)NC(Cc1ccc(Br)c(Cl)c1)C(=O)N[C@@H](C)C(=O)N1CCC[C@H]1C(=O)N1CCC[C@H]1C(=O)N[C@@H](CCC(=O)O)C(=O)N[C@@H](Cc1c[nH]cn1)C(=O)N[C@@H](CO)C(=O)N[C@H](C(=O)N[C@@H](C)C(N)=O)[C@@H](C)OP(=O)(O)O (stereo partly shown),"Serine/threonine-protein kinase PLK1 (PLK1, Homo sapiens, UniProt P53350)","binding, microscale thermophoresis",,,no binding
CC(=O)N[C@@H](CCCNC(=N)N)C(=O)N[C@H](C(=O)N1CCC[C@H]1C(=O)N[C@@H](COP(=O)(O)O)C(=O)N[C@@H](CC(C)C)C(=O)N1CCC[C@H]1C(=O)N[C@H](C)C(=O)N1CCC[C@H]1C(c1ccccc1)c1ccccc1)[C@@H](C)O,"14-3-3 protein zeta/delta (YWHAZ, Homo sapiens, UniProt P63104)","binding, ITC",,,3040 nM
O=C(N[C@@H]1c2ccccc2C[C@H]1N1CCCC1)c1ccc(-c2ccnc3[nH]ccc23)nc1,"Serine/threonine-protein kinase LATS2 (LATS2, Homo sapiens, UniProt Q9NRM7)","binding, competition with immobilised ligand",,,445 nM
N=C(N)NCc1cn([C@@H]2[C@@H](OCCn3cc(-c4cc(OCCOCCO)c(C#Cc5cc(OCCOCCO)c(C#Cc6cc(OCCOCCO)c(-c7cn(CCO[C@H]8O[C@H](CO)[C@@H](O)[C@H](O)[C@@H]8n8cc(CNC(=N)N)nn8)nn7)cc6OCCOCCO)cc5OCCOCCO)cc4OCCOCCO)nn3)O[C@H](CO)[C@@H](O)[C@@H]2O)nn1,"C-type lectin domain family 4 member M, extracellular domain (CLEC4M, Homo sapiens, UniProt Q9H2X3)","binding, surface binding",,apparent Kd,53.7 nM and 50.1 nM
CC[C@H](C)[C@@H]1NC(=O)[C@H](C)NC(=O)[C@H](CCCCN)NC(=O)[C@@H](NC(=O)CN)CSSC[C@@H]2NC(=O)CNC(=O)[C@H](C)NC(=O)[C@H](CC(C)C)NC(=O)[C@@H]3CSSC[C@@H](C(=O)NCC(=O)O)NC(=O)[C@H](Cc4ccccc4)NC(=O)CNC(=O)[C@H](CC(N)=O)NC(=O)[C@@H]4CCCN4C(=O)CNC(=O)[C@H](CSSC[C@H](NC(=O)[C@H](CCCNC(=N)N)NC(=O)[C@H](CCC(N)=O)NC(=O)[C@@H]4CCCN4C(=O)[C@H](CCCCN)NC(=O)[C@H](CC(C)C)NC(=O)[C@H](CC(C)C)NC(=O)[C@H](CC(N)=O)NC1=O)C(=O)N[C@@H](CCCCN)C(=O)N[C@@H](CCC(N)=O)C(=O)N[C@@H](CC(=O)O)C(=O)N[C@@H](CO)C(=O)N[C@@H](CC(=O)O)C(=O)N3)NC(=O)[C@H](C(C)C)NC2=O,"Low-density lipoprotein receptor-related protein 6, E1 domain (LRP6, Homo sapiens, UniProt O75581)","binding, SPR",pH 7.5,,366 nM
CC(C)C[C@H](NC(=O)[C@H](Cc1c[nH]c2ccccc12)NC(=O)CNC(=O)[C@H](Cc1ccccc1)NC(=O)[C@H](CO)NC(=O)[C@H](Cc1c[nH]c2ccccc12)NC(=O)CNC(=O)[C@@H]1CCCN1C(=O)[C@@H](N)C(C)C)C(=O)N[C@@H](Cc1c[nH]cn1)C(=O)N[C@@H](Cc1c[nH]c2ccccc12)C(=O)N1CCC[C@H]1C(=O)O,"V-type immunoglobulin domain-containing suppressor of T-cell activation, IgV domain (VSIR, Homo sapiens, UniProt Q9H7M9)","binding, microscale thermophoresis",,,71 nM
CC[C@H](C)[C@H](NC(=O)[C@@H]1CCCN1C(=O)[C@H](CO)NC(=O)[C@H](CS)NC(=O)CNC(=O)[C@H](CO)NC(=O)[C@H](Cc1ccccc1)NC(=O)[C@H](Cc1ccccc1)NC(=O)[C@H](CO)NC(=O)[C@@H](N)[C@@H](C)O)C(=O)N[C@@H](CCC(=O)O)C(=O)N[C@@H](CCC(=O)O)C(=O)N[C@@H](CC(=O)O)C(=O)N[C@@H](C)C(=O)N[C@@H](Cc1c[nH]cn1)C(=O)O,"Serine/threonine-protein phosphatase 2A 56 kDa regulatory subunit alpha isoform (Homo sapiens, UniProt Q15172)","binding, bead-based Langmuir fit",pH 7.5,,148000 nM
CC(C)C[C@H](NC(=O)[C@H](CCCNC(=N)N)NC(=O)[C@H](CC(C)C)NC(=O)[C@H](CO)NC(=S)Nc1ccc2c(c1)C(=O)OC21c2ccc(O)cc2Oc2cc(O)ccc21)C(=O)N[C@@H](CCCCN)C(=O)N[C@@H](CS)C(=O)NCC(=O)N[C@@H](CCP(=O)(O)O)C(=O)NCC(=O)N1CCC[C@H]1C(=O)N[C@H](C(=O)N[C@@H](Cc1c[nH]c2ccccc12)C(=O)N[C@@H](CC(C)C)C(=O)N[C@H](C(=O)N1CCC[C@H]1C(=O)N[C@@H](CCCNC(=N)N)C(=O)O)C(C)C)C(C)C,"14-3-3 protein theta (Homo sapiens, UniProt P27348)","binding, fluorescence anisotropy","pH 7.5, FITC-labelled phosphopeptide titration",,53400 nM
CC(CO)C1CN2C(=O)[C@H](CC(=O)O)NC(=O)CC(CC3CC3)NC(=O)[C@H](CCC(=O)O)NC(=O)CNC(=O)[C@H]([C@@H](C)O)NC(=O)[C@H](CCC(=O)O)NC(=O)[C@@H]2C1(F)F (stereo partly shown),"Kelch-like ECH-associated protein 1 (KEAP1, Homo sapiens, UniProt Q14145)",microscale thermophoresis,,,7.1 ± 0.2 nM
O=C(O)c1ccc(O)c(O)c1,"R15K mutant protein, Streptomyces coelicolor",isothermal titration calorimetry,1.5 mM,,no binding
C/C=C/C(=O)NCCCC[C@H](NC(=O)[C@H](CCCNC(=N)N)NC(=O)[C@H](C)NC(=O)[C@@H](NC(=O)[C@H](CCC(N)=O)NC(=O)[C@H](CCCCN)NC(=O)[C@@H](NC(=O)[C@H](CCCNC(=N)N)NC(C)=O)[C@@H](C)O)[C@@H](C)O)C(=O)N[C@@H](CO)C(=O)N[C@H](C(=O)NCC(=O)NCC(=O)N[C@@H](CCCCN)C(=O)N[C@@H](C)C(=O)N1CCC[C@H]1C(N)=O)[C@@H](C)O,"Protein AF-9 (Homo sapiens, UniProt P42568)","binding, ITC",pH 7.5,,2260 nM
CC(C)C[C@H](NC(=O)CNC(=O)[C@H](C)NC(=O)[C@H](CC(=O)O)NC(=O)[C@H](CC(=O)O)NC(=O)[C@H](C)NC(=O)[C@@H]1CCCN1C(=O)[C@H](CCCCN)NC(=O)CNC(=O)[C@@H]1CCCN1C(=O)[C@@H]1CCCN1C(=O)[C@@H]1CCCN1C(=O)[C@H](C)NC(=O)CN)C(=O)N[C@H](C(=O)O)C(C)C,"F-box only protein 22 (Homo sapiens, UniProt Q8NEZ5)","binding, SPR",,,32000 nM
CSCC[C@H](NC(=O)CNC(=O)[C@H](CCCNC(=N)N)NC(=O)[C@H](C)NC(=O)[C@@H](NC(=O)[C@H](CCC(N)=O)NC(=O)[C@H](Cc1ccc(OP(=O)(O)O)cc1)NC(=O)[C@H](C)NC(=O)[C@H](CS)NC(=O)[C@H](CO)NC(=O)[C@@H](NC(=O)[C@H](CC(C)C)NC(=O)[C@H](CC(=O)O)NC(=O)[C@H](CCCCN)NC(=O)[C@H](CO)NC(=O)[C@H](CO)NC(=O)c1ccc2c(c1)C(=O)OC21c2ccc(N(C)C)cc2Oc2cc(N(C)C)ccc21)C(C)C)C(C)C)C(=O)N[C@@H](CCC(=O)O)C(=O)N[C@@H](CC(=O)O)C(=O)O,"Crk-like protein, SH2 domain (Homo sapiens, UniProt P46109)",binding,,,239 nM
COCC[C@@H](NC(=O)[C@H](C)NC(=O)[C@H](NC(=O)[C@H](NC(=O)[C@H](F)CC(C)(C)C)C(C)(C)O)[C@H](C)c1ccccc1)C(=O)N(C)Cc1ccccc1,"Ras GTPase-activating protein-binding protein 1 (G3BP1, Homo sapiens, UniProt Q13283)","binding, SPR",,,75500 nM
CC[C@H](C)[C@@H]1NC(=O)[C@@H](Cc2ccccc2)NC(=O)[C@@H](Cc2ccccc2)NC(=O)[C@@H](C)NC(=O)[C@H](CCC(=O)N[C@@H](CCCCN)C(N)=O)NC(=O)[C@@H](C)NC(=O)[C@@H](C)NC(=O)[C@@H](C)NC(=O)[C@H](Cc2c[nH]c3ccccc23)NC(=O)[C@H](CCCNC(=N)N)NC1=O,"cysS (Escherichia coli, UniProt P21888)",binding,,,1100 nM
